Results pooled from the literature.
± gives the spread as reported.

`CSCC[C@H](NC(=O)[C@H](CC(C)C)NC(=O)[C@H](Cc1c[nH]cn1)NC(=O)CNC(=O)[C@@H](NC(=O)[C@H](C)NC(=O)[C@H](Cc1c[nH]c2ccccc12)NC(=O)[C@H](CCC(N)=O)NC(=O)CCCCCCCNC(=O)CCC(=O)Nc1ccc(CNC23CNCCNCC(N)(CNCCNC2)CNCCNC3)cc1)C(C)C)C(N)=O` [copper-64 labelled] — result for “blood radioactivity remaining”: 8% (mice, PC-3 xenograft; dose not given, 24 h; relative to: level at 1 h).
`N=C(N)NCCC[C@@H]1NC(=O)[C@H](CCCCNC(=O)CC[C@H](NC(=O)CCOCCOCCOCCOCCNC(=O)CN2CCN(CC(=O)O)CCN(CC(=O)O)CCN(CC(=O)O)CC2)C(=O)NCCCC[C@@H]2NC(=O)[C@@H](Cc3ccccc3)NC(=O)[C@H](CC(=O)O)NC(=O)CNC(=O)[C@H](CCCNC(=N)N)NC2=O)NC(=O)[C@@H](Cc2ccccc2)NC(=O)[C@H](CC(=O)O)NC(=O)CNC1=O` [indium-111 labelled] gave a tissue uptake of 0.82 ± 0.27 %ID/g (female athymic nude mice, eyes; intravenous, 3 µCi, 1 h, U-87 MG glioma xenograft).
With `C[C@@H](O)[C@H](NC(=O)[C@@H]1CSSC[C@H](NC(=O)[C@@H](Cc2ccccc2)NC(=O)CN2CCCN3CCN(CCCN(CP(=O)(O)O)CC3)CC2)C(=O)N[C@@H](Cc2ccc(O)cc2)C(=O)N[C@H](Cc2c[nH]c3ccccc23)C(=O)N[C@@H](CCCCN)C(=O)N[C@@H]([C@@H](C)O)C(=O)N1)C(=O)O` [copper-64 labelled] the tumour-to-tissue ratio was 112 ± 10 (Lewis rat, male, tumour-bearing; 24 h; relative to: tumour over muscle).
For `CC(C)C[C@@H]1NC(=O)[C@H](C(C)C)NC(=O)[C@H](CO)NC(=O)CNC(=O)CNC(=O)[C@H](CCCNC(=N)N)NC(=O)[C@@H]2CCCN2C(=O)[C@@H](NC(=O)CC[C@H](NC(=O)c2ccc(N(C)Cc3cnc4nc(N)nc(N)c4n3)cc2)C(=O)O)C(C)(C)SSC[C@@H](C(=O)O)NC(=O)CNC(=O)[C@H]([C@@H](C)O)NC(=O)[C@H](C(C)C)NC1=O`, the half-life was 24.1 days (phosphate buffer; 100 µM, pH 7.0, 70 °C).
For `C[C@@H](O)[C@H](NC(=O)[C@@H]1CSSC[C@H](NC(=O)[C@@H](Cc2ccccc2)NC(=O)CN2CCN(CC(N)=O)CCN(CC(N)=O)CCN(CC(N)=O)CC2)C(=O)N[C@@H](Cc2ccc(O)cc2)C(=O)N[C@H](Cc2c[nH]c3ccccc23)C(=O)N[C@@H](CCCCN)C(=O)N[C@@H]([C@@H](C)O)C(=O)N1)C(=O)O` [lead-212 labelled], the mortality was 50% (CD-1 mice; 2 x 20 µCi, three-week interval, within four weeks).
`CCCC[C@@H](NC(=O)[C@H](Cc1c[nH]c2ccccc12)NC(=O)[C@@H](N)CSC1CC(=O)N(CC2CCC(C(=O)N[C@H]3C[C@H](O[C@H]4C[C@](O)(C(=O)CO)Cc5c(O)c6c(c(O)c54)C(=O)c4c(OC)cccc4C6=O)O[C@@H](C)[C@H]3O)CC2)C1=O)C(=O)N[C@@H](CCC(=O)O)C(=O)N[C@@H](C)C(=O)N[C@@H](C)C(=O)N[C@@H](Cc1ccc(O)cc1)C(=O)N[C@@H](CCC(N)=O)C(=O)N[C@H](CCCNC(=N)N)C(=O)N[C@@H](Cc1ccccc1)C(=O)N[C@@H](CC(C)C)C(N)=O` (stereo partly shown) gave a half-life of about 2 days (DMEM/F12 with HEPES; 100 µM, 37 °C).
`N=C(N)NCCC[C@@H]1NC(=O)[C@H](CCCCNC(=O)CCOCCOCCOCCOCCNC(=O)CN2CCN(CC(=O)O)CCN(CC(=O)O)CCN(CC(=O)O)CC2)NC(=O)[C@@H](Cc2ccccc2)NC(=O)[C@H](CC(=O)O)NC(=O)CNC1=O` [indium-111 labelled] — result for “tumour to tissue ratio”: 2.55 ± 0.42 (athymic nude mice, female, U-87 MG glioma xenograft, tumour and liver; intravenous, 1 h; relative to: tumour over liver).
`CC(C)C[C@H](NC(=O)[C@@H]1CCCN1C(=O)[C@H](CCCCN)NC(=O)[C@@H](N)CO)C(=O)N1CCC[C@H]1C(=O)N[C@@H](CCC(=O)O)C(=O)N[C@H](C(=O)N[C@H](C(=O)N[C@@H](CC(=O)O)C(=O)N[C@@H](CCC(=O)O)C(=O)N[C@@H](Cc1ccc(O)cc1)C(=O)N[C@@H](Cc1cn(CCOCCOCCOCCNC(=O)CCc2ccc(O)c(CN(CCN(CC(=O)O)Cc3cc(CCC(=O)NCCCC[C@H](NC(=O)N[C@@H](CCC(=O)O)C(=O)O)C(=O)O)ccc3O)CC(=O)O)c2)nn1)C(=O)O)[C@@H](C)O)C(C)C` [gallium-68 labelled] — result for “standardized uptake value”: 0.05 g/g (NMRI nu/nu mice, LNCaP tumour, heart; 135.34 nmol/kg, low molar activity).
`CSCC[C@H](NC(=O)[C@H](CC(C)C)NC(=O)[C@H](Cc1c[nH]cn1)NC(=O)CNC(=O)[C@@H](NC(=O)[C@H](C)NC(=O)[C@H](Cc1c[nH]c2ccccc12)NC(=O)[C@H](CCC(N)=O)NC(=O)CCCCCNC(=O)CNC(=O)CNC(=O)CNC(=O)CSC(C)=O)C(C)C)C(N)=O` [technetium-99m labelled] has a tissue uptake of 0.33 ± 0.05 %ID/g (Swiss mouse, muscle; intravenous, 18.5 MBq, 5 min).
The uptake ratio of `CCCC[C@H](NC(=O)CNC(=O)[C@H](CO)NC(=O)CNC(=O)c1ccc(NN)nc1)C(=O)N[C@H]1CC(=O)NCCCC[C@@H](C(N)=O)NC(=O)[C@H](Cc2c[nH]c3ccccc23)NC(=O)[C@H](CCCNC(=N)N)NC(=O)[C@@H](Cc2ccccc2)NC(=O)[C@H](Cc2c[nH]cn2)NC1=O` [technetium-99m labelled] is reported as 50.1 (C57 mouse, B16/F1 melanoma; 2 h; relative to: tumour over lung).
`N=C(N)NCCC[C@@H]1NC(=O)[C@H](CCCCNC(=O)CC[C@H](NC(=O)CCOCCOCCOCCOCCNC(=O)CC[C@H](NC(=O)CN2CCN(CC(=O)O)CCN(CC(=O)O)CCN(CC(=O)O)CC2)C(=O)NCCOCCOCCOCCOCCC(=O)N[C@@H](CCC(=O)NCCCC[C@@H]2NC(=O)[C@@H](Cc3ccccc3)NC(=O)[C@H](CC(=O)O)NC(=O)CNC(=O)[C@H](CCCNC(=N)N)NC2=O)C(=O)NCCCC[C@@H]2NC(=O)[C@@H](Cc3ccccc3)NC(=O)[C@H](CC(=O)O)NC(=O)CNC(=O)[C@H](CCCNC(=N)N)NC2=O)C(=O)NCCCC[C@@H]2NC(=O)[C@@H](Cc3ccccc3)NC(=O)[C@H](CC(=O)O)NC(=O)CNC(=O)[C@H](CCCNC(=N)N)NC2=O)NC(=O)[C@@H](Cc2ccccc2)NC(=O)[C@H](CC(=O)O)NC(=O)CNC1=O` [indium-111 labelled] — result for “tumour to tissue ratio”: 4.34 ± 1.12 (athymic nude mice, female, U-87 MG glioma xenograft, tumour and liver; intravenous, 1 h; relative to: tumour over liver).
`CC[C@@]1(O)C(=O)OCc2c1cc1n(c2=O)Cc2cc3cc(OC(=O)CCCC(=O)NCC(=O)N[C@@H](Cc4ccccc4)C(=O)N[C@@H](Cc4ccccc4)C(=O)N[C@@H](Cc4ccc(O)cc4)C(=O)NCCSSCCNC(=O)CCC(=O)N[C@@H](CCC(=O)O)C(=O)N[C@@H](CCCNC(=N)N)C(=O)NCC(=O)N[C@@H](CC(=O)O)C(=O)O)ccc3nc2-1` gave a nanoparticle diameter of 50 to 100 nm (TEM and AFM; PBS; 100 µM, pH 7.4, with: alkaline phosphatase 1 U/mL).
For `N=C(N)NCCC[C@@H]1NC(=O)[C@H](CCCCNC(=O)CCOCCOCCOCCOCCNC(=O)CC[C@H](NC(=O)CCOCCOCCOCCOCCNC(=O)CC[C@H](NC(=O)CN2CCN(CC(=O)O)CCN(CC(=O)O)CCN(CC(=O)O)CC2)C(=O)NCCOCCOCCOCCOCCC(=O)N[C@@H](CCC(=O)NCCOCCOCCOCCOCCC(=O)NCCCC[C@@H]2NC(=O)[C@@H](Cc3ccccc3)NC(=O)[C@H](CC(=O)O)NC(=O)CNC(=O)[C@H](CCCNC(=N)N)NC2=O)C(=O)NCCOCCOCCOCCOCCC(=O)NCCCC[C@@H]2NC(=O)[C@@H](Cc3ccccc3)NC(=O)[C@H](CC(=O)O)NC(=O)CNC(=O)[C@H](CCCNC(=N)N)NC2=O)C(=O)NCCOCCOCCOCCOCCC(=O)NCCCC[C@@H]2NC(=O)[C@@H](Cc3ccccc3)NC(=O)[C@H](CC(=O)O)NC(=O)CNC(=O)[C@H](CCCNC(=N)N)NC2=O)NC(=O)[C@@H](Cc2ccccc2)NC(=O)[C@H](CC(=O)O)NC(=O)CNC1=O` [indium-111 labelled], “tumour to tissue ratio” read 2.61 ± 0.33 (athymic nude mice, female, U-87 MG glioma xenograft, tumour and lungs; intravenous, 0.5 h; relative to: tumour over lungs).
For `CCCC[C@H](NC(=O)CCCCCCCNC(=O)c1ccc(NN)nc1)C(=O)N[C@H]1CC(=O)NCCCC[C@@H](C(N)=O)NC(=O)[C@H](Cc2c[nH]c3ccccc23)NC(=O)[C@H](CCCNC(=N)N)NC(=O)[C@@H](Cc2ccccc2)NC(=O)[C@H](Cc2c[nH]cn2)NC1=O` [technetium-99m labelled], the uptake was 0.02 ± 0.01 %ID/g (C57 mouse, B16/F1 melanoma, muscle; intravenous, 24 h).
`N=C(N)NCCC[C@@H]1NC(=O)[C@H](CCCCNC(=O)CNC(=O)CNC(=O)CNC(=O)CC[C@H](NC(=O)CCOCCOCCOCCOCCNC(=O)CC[C@H](NC(=O)CN2CCN(CC(=O)O)CCN(CC(=O)O)CCN(CC(=O)O)CC2)C(=O)NCCOCCOCCOCCOCCC(=O)N[C@@H](CCC(=O)NCC(=O)NCC(=O)NCC(=O)NCCCC[C@@H]2NC(=O)[C@@H](Cc3ccccc3)NC(=O)[C@H](CC(=O)O)NC(=O)CNC(=O)[C@H](CCCNC(=N)N)NC2=O)C(=O)NCC(=O)NCC(=O)NCC(=O)NCCCC[C@@H]2NC(=O)[C@@H](Cc3ccccc3)NC(=O)[C@H](CC(=O)O)NC(=O)CNC(=O)[C@H](CCCNC(=N)N)NC2=O)C(=O)NCC(=O)NCC(=O)NCC(=O)NCCCC[C@@H]2NC(=O)[C@@H](Cc3ccccc3)NC(=O)[C@H](CC(=O)O)NC(=O)CNC(=O)[C@H](CCCNC(=N)N)NC2=O)NC(=O)[C@@H](Cc2ccccc2)NC(=O)[C@H](CC(=O)O)NC(=O)CNC1=O` [indium-111 labelled] — result for “tumour to tissue ratio”: 4.39 ± 1.13 (athymic nude mice, female, U-87 MG glioma xenograft, tumour and liver; intravenous, 1 h; relative to: tumour over liver).
`CCCC[C@H](NC(=O)CNC(=O)CNC(=O)c1ccc(NN)nc1)C(=O)N[C@H]1CC(=O)NCCCC[C@@H](C(N)=O)NC(=O)[C@H](Cc2c[nH]c3ccccc23)NC(=O)[C@H](CCCNC(=N)N)NC(=O)[C@@H](Cc2ccccc2)NC(=O)[C@H](Cc2c[nH]cn2)NC1=O` [technetium-99m labelled] has an uptake of 0.09 ± 0.05 %ID/g (C57 mouse, B16/F1 melanoma, blood; 2 h, with: L-lysine 12 mg).

Repeated from above:
`CC[C@@]1(O)C(=O)OCc2c1cc1n(c2=O)Cc2cc3cc(OC(=O)CCCC(=O)NCC(=O)N[C@@H](Cc4ccccc4)C(=O)N[C@@H](Cc4ccccc4)C(=O)N[C@@H](Cc4ccc(O)cc4)C(=O)NCCSSCCNC(=O)CCC(=O)N[C@@H](CCC(=O)O)C(=O)N[C@@H](CCCNC(=N)N)C(=O)NCC(=O)N[C@@H](CC(=O)O)C(=O)O)ccc3nc2-1` gave a nanoparticle diameter of 50 to 100 nm (TEM and AFM; PBS; 100 µM, pH 7.4, with: alkaline phosphatase 1 U/mL).
For `N=C(N)NCCC[C@@H]1NC(=O)[C@H](CCCCNC(=O)CCOCCOCCOCCOCCNC(=O)CC[C@H](NC(=O)CCOCCOCCOCCOCCNC(=O)CC[C@H](NC(=O)CN2CCN(CC(=O)O)CCN(CC(=O)O)CCN(CC(=O)O)CC2)C(=O)NCCOCCOCCOCCOCCC(=O)N[C@@H](CCC(=O)NCCOCCOCCOCCOCCC(=O)NCCCC[C@@H]2NC(=O)[C@@H](Cc3ccccc3)NC(=O)[C@H](CC(=O)O)NC(=O)CNC(=O)[C@H](CCCNC(=N)N)NC2=O)C(=O)NCCOCCOCCOCCOCCC(=O)NCCCC[C@@H]2NC(=O)[C@@H](Cc3ccccc3)NC(=O)[C@H](CC(=O)O)NC(=O)CNC(=O)[C@H](CCCNC(=N)N)NC2=O)C(=O)NCCOCCOCCOCCOCCC(=O)NCCCC[C@@H]2NC(=O)[C@@H](Cc3ccccc3)NC(=O)[C@H](CC(=O)O)NC(=O)CNC(=O)[C@H](CCCNC(=N)N)NC2=O)NC(=O)[C@@H](Cc2ccccc2)NC(=O)[C@H](CC(=O)O)NC(=O)CNC1=O` [indium-111 labelled], “tumour to tissue ratio” read 2.61 ± 0.33 (athymic nude mice, female, U-87 MG glioma xenograft, tumour and lungs; intravenous, 0.5 h; relative to: tumour over lungs).
